Experimental data of several laboratories.
Protocols differ between the studies behind these lines. Numbers after ± are the reported error.

Compound	test	test system	conditions	tissue uptake
CC(C)C[C@@H](NC(=O)[C@@H](CCCNC(=N)N)NC(=O)[C@@H](Cc1c[nH]cn1)NC(=O)[C@@H](Cc1c[nH]c2ccccc12)NC(=O)[C@@H](Cc1c[nH]cn1)NC(=O)[C@@H](Cc1ccccc1)NC(=O)[C@H](NC(=O)[C@@H](Cc1ccc(O)cc1)NC(=O)CNC(=O)CNC(=O)CCOCCOCCOCCNC(=O)CN1CCN(CC(=O)O)CCN(CC(=O)O)CC1)[C@H](C)O)C(=O)N[C@H](CC(N)=O)C(=O)N1CCC[C@@H]1C(=O)O [gallium-68 labelled]	gamma counting	C57BL/6 mice, male, liver	intravenous, 1.85 MBq, 120 min	0.63 ± 0.12 %ID/g
CSCC[C@H](NC(=O)CNC(=O)[C@H](CCCCN)NC(=O)[C@H](CC(C)C)NC(=O)[C@@H]1CCCN1C(=O)[C@H](CO)NC(=O)[C@H](Cc1c[nH]cn1)NC(=O)[C@H](Cc1c[nH]c2ccccc12)NC(=O)[C@H](CCCNC(=N)N)NC(=O)[C@H](CC(C)C)NC(=O)[C@H](CCCNC(=N)N)NC(=O)[C@H](Cc1c[nH]c2ccccc12)NC(=O)[C@H](CS)NC(=O)CCCCCNC(=O)CN1CCN(CC(=O)O)CCN(CC(=O)O)CCN(CC(=O)O)CC1)C(=O)O [copper-64 labelled]	ex vivo biodistribution	C57BL/6J mice bearing B16-F10 tumours, lung	intravenous, 1.85 MBq, 0.5 h	6.05 %ID/g
CCCC[C@H]1C(=O)N(C)[C@@H](CCCC)C(=O)N[C@@H](CCCNC(=O)CN2CCN(CC(=O)O)CCN(CC(=O)O)CCN(CC(=O)O)CC2)C(=O)N[C@H](C(=O)NCC(N)=O)CSCC(=O)N[C@@H](Cc2ccc(O)cc2)C(=O)N(C)[C@@H](C)C(=O)N[C@@H](CC(N)=O)C(=O)N2CCC[C@H]2C(=O)N[C@@H](Cc2c[nH]cn2)C(=O)N[C@@H](CC(C)C)C(=O)N(C)CC(=O)N[C@@H](Cc2c[nH]c3ccccc23)C(=O)N[C@@H](CO)C(=O)N[C@@H](Cc2c[nH]c3ccccc23)C(=O)N1C [gallium-68 labelled]		NOD/SCID mice with CHO-hPD-L1 xenograft, lung	60 min post injection	15.6 ± 0.41 %ID/g
C[C@H](O)[C@@H](NC(=O)[C@H]1CCCN1C(=O)[C@@H](CCCCN)NC(=O)[C@@H](CO)NC(=O)[C@@H](Cc1ccc(O)cc1)NC(=O)[C@@H](CC(N)=O)NC(=O)CCOCCOCCOCCNC(=O)CN1CCN(CC(=O)O)CCN(CC(=O)O)CCN(CC(=O)O)CC1)C(=O)N[C@H](CC(=O)O)C(=O)N[C@H](CCCNC(=N)N)C(=O)N[C@H](CCC(N)=O)C(=O)N[C@H](Cc1ccc(O)cc1)C(=O)N[C@H](Cc1c[nH]cn1)C(=O)N[C@H](Cc1ccccc1)C(N)=O [gallium-68 labelled]		BALB/c nude mice U-87 MG tumour, pancreas	intravenous, 1.85 MBq, 2 h, radiolabelled	0.13 ± 0.03 %ID/g
CC[C@H](C)[C@H](NC(=O)[C@H](CCCNC(=N)N)NC(=O)[C@H](CCCCN)NC(=O)[C@H](Cc1ccc(O)cc1)NC(=O)[C@H](CC(=O)O)NC(=O)[C@H](C)NC(=O)CNC(=O)CCOCCOCCOCCNC(=O)CN1CCN(CC(=O)O)CCN(CC(=O)O)CCN(CC(=O)O)CC1)C(=O)N[C@H](C(=O)N[C@@H](CC(C)C)C(=O)N[C@@H](CCCCN)C(=O)N[C@H](C(=O)N[C@@H](CC(N)=O)C(N)=O)C(C)C)[C@@H](C)O [copper-64 labelled]	ex vivo gamma counting	C57BL/6J male mice, B16-F10 tumour, pancreas	intravenous, 1.85 MBq, 5 min	1.32 ± 0.122 %ID/g
CC[C@H](C)[C@H](NC(=O)[C@H](CCCCN)NC(=O)CNC(=O)[C@H](CC(C)C)NC(=O)[C@H](Cc1ccccc1)NC(=O)[C@H](CCCCN)NC(=O)[C@H](CO)NC(=O)[C@H](Cc1ccccc1)NC(=O)[C@H](Cc1c[nH]c2ccccc12)NC(=O)[C@H](CCC(N)=O)NC(=O)[C@@H](NC(=O)[C@H](Cc1ccccc1)NC(=O)CCCCCNC(=O)CN1CCN(CC(=O)O)CCN(CC(=O)O)CCN(CC(=O)O)CC1)C(C)C)C(=O)N[C@@H](CCC(=O)O)C(=O)N1CCC[C@H]1C(=O)N[C@@H](CC(=O)O)C(=O)N[C@H](C(=O)N[C@@H](CO)C(=O)N[C@@H](CCC(N)=O)C(=O)N[C@H](C(=O)N[C@@H](CCC(N)=O)C(=O)N[C@@H](CC(=O)O)C(=O)N1CCC[C@H]1C(=O)N[C@@H](CC(N)=O)C(=O)N[C@@H](CC(=O)O)C(=O)N[C@@H](CCC(N)=O)C(=O)N[C@@H](Cc1ccc(O)cc1)C(=O)N[C@@H](CCC(=O)O)C(=O)N1CCC[C@H]1C(=O)N[C@@H](Cc1ccccc1)C(=O)O)C(C)C)C(C)C [copper-64 labelled]		GZMB-/- mice, CT26 tumour-bearing, small intestine	2 h, vehicle-treated	4.91 ± 0.8 %ID/g
CC[C@H](C)[C@H](NC(=O)[C@H](CCCNC(=N)N)NC(=O)[C@H](CCCCN)NC(=O)[C@H](Cc1ccc(O)cc1)NC(=O)[C@H](CC(=O)O)NC(=O)[C@H](C)NC(=O)CNC(=O)CCOCCOCCOCCNC(=O)CN1CCN(CC(=O)O)CCN(CC(=O)O)CCN(CC(=O)O)CC1)C(=O)N[C@H](C(=O)N[C@H](C(=O)N[C@@H](CCCCN)C(=O)N[C@H](C(=O)N[C@@H](CC(N)=O)C(N)=O)C(C)C)C(C)C)[C@@H](C)O [copper-64 labelled]	ex vivo gamma counting	C57BL/6J male mice, B16-F10 tumour, pancreas	intravenous, 1.85 MBq, 40 min	0.642 ± 0.094 %ID/g
CC[C@H](C)[C@H](NC(=O)[C@@H](Cc1c[nH]c2ccccc12)NC(=O)[C@@H]1CCCN1C(=O)[C@H](CCCCN)NC(=O)[C@H](CCCCN)NC(=O)CCNC(=O)CCNC(=O)CN1CCN(CC(=O)O)CCN(CC(=O)O)CCN(CC(=O)O)CC1)C(=O)N[C@@H](C[Si](C)(C)C)C(=O)O [gallium-68 labelled]	ex vivo biodistribution	nude mice, HT-29 xenograft, heart	90 min, added: levocabastine 0.5 µmol	0.1 ± 0.02 %ID/g
